Measured values pooled from the literature.
Each line is one published result; not all experiments were run side by side. ± gives the spread as reported.
ACTA1 pyrene-labeled: Actin, alpha skeletal muscle, pyrene-labeled (ACTA1, Oryctolagus cuniculus, UniProt P68135)
Voltage-dependent P/Q-type calcium channel subunit alpha-1A: Voltage-dependent P/Q-type calcium channel subunit alpha-1A (Homo sapiens, UniProt O00555)
gag-pol reverse transcriptase: Gag-Pol polyprotein, reverse transcriptase (gag-pol, Human immunodeficiency virus 1, UniProt P03366)

| Compound | target | assay | test system | setting | how to read | inhibition |
| --- | --- | --- | --- | --- | --- | --- |
| CCN1C(=O)SCC1C1(OC)CC2CC(CCC(C)C=CC=CCCC(C)=CC(=O)O2)O1 (stereo not shown) | ACTA1 pyrene-labeled | actin polymerization, pyrene actin |  | 1 µM | baseline: vehicle | 18% |
| C[C@H](C(=O)N[C@H]1COc2ccccc2[C@@H]1S(C)(=O)=O)c1ccc(F)cc1 | CHUK (Homo sapiens, UniProt O15111) | enzyme activity |  | 10 µM, Eurofins selectivity panel |  | -1% |
| CC(=O)Nc1c2sscc-2[nH]c1=O | Isoleucine--tRNA ligase (ileS, Staphylococcus aureus, UniProt Q5HGN8) | ATP-pyrophosphate exchange |  | up to 100 µM |  | no inhibition |
| O=C(Nc1cccnn1)N1CCC(=Cc2cccc(Oc3ccc(C(F)(F)F)cn3)c2)CC1 | CCKAR (Homo sapiens, UniProt P32238) | binding |  | 50 µM, added: [3H]L-364,718 |  | 17% |
| CN(CCN1CCC(OC(=O)Nc2ccccc2-c2ccccc2)CC1)C(=O)c1ccc(CN2CCC(C(N)=O)CC2)cc1 | rat NMDA receptor | radioligand binding |  | 1 µM, added: [3H]CGP39653 5.0 nM |  | -3% |
| O=C(/C=C\c1ccccc1)O[C@H]1[C@@H]2C=CO[C@@H](O[C@@H]3O[C@H](CO)[C@@H](O)[C@H](O)[C@H]3O)[C@@H]2[C@@]2(CO)O[C@@H]12 | MAOB (Homo sapiens, UniProt P27338) | inhibitor, fluorescence |  | 0.05 mg/mL, added: kynuramine |  | 56.6% |
| FC(F)(F)c1cccc(Nc2nc(NCCOc3ccccc3)nc3[nH]cnc23)c1 | PRKCB (Homo sapiens, UniProt P05771) | kinase activity, Z'-LYTE |  | 5 µM |  | 7% |
| C#Cc1n[nH]c2c(-c3cn(C(C)c4ccccn4)c(=O)[nH]c3=O)cc(F)cc12 (stereo not shown) | 5'-AMP-activated protein kinase catalytic subunit alpha-2, with beta1 gamma1 (PRKAA2, Homo sapiens, UniProt P54646) | kinase activity, inhibitor |  | 1 µM |  | 6.9% |
| Nc1ccncc1 | Voltage-dependent P/Q-type calcium channel subunit alpha-1A | antagonist |  | 3 µM |  | 18% |
| O=c1ccc2ccccc2o1 | DRD1 (Homo sapiens, UniProt P21728) | antagonist radioligand binding |  | 10 µM, SafetyScreen44 |  | -1.18% |
| NC/C(=C\F)COc1cccc(Cn2c(=S)[nH]c(=O)c3[nH]cnc32)c1 | rat central GABAA receptor | radioligand binding |  | 10 µM, added: flunitrazepam |  | < 50% |
| O=C1CSC(c2cccc(Br)c2)N1c1nc(-c2ccc(S(=O)(=O)N3CCOCC3)cc2)cs1 (stereo not shown) | gag-pol reverse transcriptase |  |  | 4 µM |  | 10.8% |
| CO[C@]1([C@@H]2CSC(=O)N2C2CCCC2)C[C@H]2C[C@@H](CC[C@H](C)/C=C\C=C\CC/C(C)=C\C(=O)O2)O1 | ACTA1 pyrene-labeled | actin polymerization, pyrene actin |  | 0.1 µM | baseline: vehicle | 20% |
| COc1cc2c(c(OC)c1OC)-c1ccc(OC)c(=O)cc1[C@@H](NC(C)=O)CC2 | Voltage-dependent P/Q-type calcium channel subunit alpha-1A | ion current, antagonist | HEK293 | 10 µM |  | 3% |
| C/C1=C/C(=O)O[C@@H]2C[C@@H](CC[C@H](C)/C=C\C=C\CC1)O[C@@](O)([C@@H]1CSC(=O)N1CO)C2 | ACTA1 pyrene-labeled | actin polymerization, pyrene actin |  | 1 µM | baseline: vehicle | 90% |
| Cn1cccc1-c1cccnc1 | ADRB3 (Homo sapiens, UniProt P13945) | binding |  | 50 µM |  | -10.3% |
| CC(C)[C@@H](O)CC[C@@H](C)[C@H]1CC[C@H]2[C@@H]3CC=C4C[C@@H](O)CC[C@]4(C)[C@H]3CC[C@]12C | Glutamate NMDA receptor; GRIN1/GRIN2B (GRIN1/GRIN2B, Homo sapiens, UniProt Q05586+Q13224) | proton inhibition of current, two-electrode voltage clamp | Xenopus oocytes | concentration not given, current ratio pH 6.8 over pH 7.6, added: positive allosteric modulator 10 µM |  | 25 ± 1.7% |
| Cc1ncc(C)n2nc(/C=C/c3nc(N4CCCC4)cc(N4CCOCC4)n3)nc12 | human TNF-alpha | binding |  | 10 µM |  | -4% |
| NC(=O)CC[C@H](NC(=O)[C@@H]1CCCN1C(=O)[C@H](CCC(N)=O)NC(=O)[C@@H]1CCCN1C(=O)[C@@H](N)Cc1ccc(O)cc1)C(=O)O | DPP4 (Homo sapiens, UniProt P27487) | inhibitor |  | 50 µM, 20 min, pH 8.0, 37 °C, added: Gly-Pro-pNA 500 µM |  | 67.8% |

| Compound | target | assay | test system | setting | how to read | inhibition |
| --- | --- | --- | --- | --- | --- | --- |
| O=C(Nc1cnccc1Cl)N1CCN(Cc2ccc3c(c2)OC(F)(F)O3)CC1 | MAPKAPK5 (Homo sapiens, UniProt Q8IW41) | kinase activity, inhibitor |  | 50 µM, added: PRAK peptide substrate |  | -9% |
| O=C1CSC(c2cccc(Br)c2)N1c1nc(-c2ccc(S(=O)(=O)N3CCCC3)cc2)cs1 (stereo not shown) | gag-pol reverse transcriptase |  |  | 4 µM |  | 12.6% |
| COc1ccc(N2C(=O)N(c3c(C)cccc3Cl)Cc3cnc(Nc4ccc(C5CCN(C)CC5)cc4OC)nc32)nc1 | BMPR1B (Homo sapiens, UniProt O00238) | kinase activity, inhibitor |  | 0.5 µM, kinase ALK6 |  | 16% |
| CC[C@H](C)[C@H](NC(=O)[C@@H](NC(=O)[C@H](N)Cc1ccccc1)C(C)C)C(=O)N[C@@H](C)C(N)=O | APP (Homo sapiens, UniProt P05067) | amyloid-beta aggregation, thioflavin T fluorescence |  | 1.0 µM, 72 h, added: 2 µM amyloid-beta |  | 72.6% |
| CCN(Cc1ccccc1C(F)(F)F)C(=O)C1CCN(S(=O)(=O)c2ccc3[nH]ncc3c2)CC1 | rat NMDA receptor | radioligand binding |  | 10 µM, phencyclidine site |  | 8% |
| O=C1CSC(c2c(Cl)cccc2Cl)N1c1nc(-c2ccc(S(=O)(=O)N3CCOCC3)cc2)cs1 (stereo not shown) | gag-pol reverse transcriptase |  |  | 4 µM |  | 2.48% |
| CO[C@]1([C@@H]2CSC(=O)N2CCCO)C[C@H]2C[C@@H](CC[C@H](C)/C=C\C=C\CC/C(C)=C\C(=O)O2)O1 | ACTA1 pyrene-labeled | actin polymerization, pyrene actin |  | 0.1 µM | baseline: vehicle | 0% |
| N.N.O=C([O-])C1(C(=O)[O-])CCC1.[Pt+2] | Voltage-dependent P/Q-type calcium channel subunit alpha-1A | antagonist |  | 3 µM |  | 3% |
| CCNC(=O)[C@H]1O[C@@H](n2cnc3c(N)ncnc32)[C@H](O)[C@@H]1O | rat adenosine A2 receptor | binding |  | 1 × 10 µM |  | 96.3% |
| COc1cc(Nc2ncc(F)c(Nc3ccc4c(n3)NC(=O)C(C)(C)O4)n2)cc(OC)c1OC | BMP2K (Homo sapiens, UniProt Q9NSY1) | KINOMEscan |  | 10 µM, BIKE |  | 96% |
| CN1CCN(c2cc(-c3ccncc3)c(-c3ccc4ccccc4c3)nn2)CC1 | HCAR2 (Homo sapiens, UniProt Q8TDS4) | antagonist, FLIPR |  | 10 µM |  | -28% |
| O=C(O[C@@H]1Cc2c(O)cc(O)cc2O[C@@H]1c1cc(=O)c(O)c2c(O)c(O)cc([C@H]3Oc4cc(O)cc(O)c4C[C@H]3O)c2c1)c1cc(O)c(O)c(O)c1 | PDIA3 (Homo sapiens, UniProt P30101) | di-eosin-GSSG reductase activity |  | 20 µM, 15 min |  | inhibited |
| O=C1CSC(c2c(F)cccc2Cl)N1c1nc(-c2ccc(S(=O)(=O)N3CCOCC3)cc2)cs1 (stereo not shown) | gag-pol reverse transcriptase |  |  | 4 µM |  | 61.3% |
| Cn1cc(-c2cccc(N3CCc4c(sc5c4CC(C)(C)C5)C3=O)c2CO)cc(Nc2ccncn2)c1=O | Protein kinase C beta type, isoform beta-II (PRKCB, Homo sapiens, UniProt P05771) | kinase activity, inhibitor, SelectScreen kinase profiling |  | 1 µM, added: ATP at apparent Km |  | -1% |
| O=C1CSC(c2cccc(F)c2)N1c1nc(-c2ccc(S(=O)(=O)N3CCCC3)cc2)cs1 (stereo not shown) | gag-pol reverse transcriptase |  |  | 4 µM |  | 54.5% |
| CN(C(=O)n1cnc(-c2ccc[n+]([O-])c2)c1)C1CCCCC1 | GABBR1 (Homo sapiens, UniProt Q9UBS5) | radioligand binding |  | 10 µM, added: [3H]CGP-54626 |  | 1% |
| O=C1CSC(c2c(F)cccc2Cl)N1c1nc(-c2ccc(S(=O)(=O)N3CCCC3)cc2)cs1 (stereo not shown) | gag-pol reverse transcriptase |  |  | 4 µM |  | 10.6% |
| CO[C@]1([C@@H]2CSC(=O)N2C)C[C@H]2C[C@@H](CC[C@H](C)/C=C\C=C\CC/C(C)=C\C(=O)O2)O1 | ACTA1 pyrene-labeled | actin polymerization, pyrene actin |  | 1 µM | baseline: vehicle | 19% |

Excerpt of the above:
| Compound | target | assay | test system | setting | how to read | inhibition |
| --- | --- | --- | --- | --- | --- | --- |
| O=C(O[C@@H]1Cc2c(O)cc(O)cc2O[C@@H]1c1cc(=O)c(O)c2c(O)c(O)cc([C@H]3Oc4cc(O)cc(O)c4C[C@H]3O)c2c1)c1cc(O)c(O)c(O)c1 | PDIA3 (Homo sapiens, UniProt P30101) | di-eosin-GSSG reductase activity |  | 20 µM, 15 min |  | inhibited |
| O=C1CSC(c2c(Cl)cccc2Cl)N1c1nc(-c2ccc(S(=O)(=O)N3CCOCC3)cc2)cs1 (stereo not shown) | gag-pol reverse transcriptase |  |  | 4 µM |  | 2.48% |
| CN(C(=O)n1cnc(-c2ccc[n+]([O-])c2)c1)C1CCCCC1 | GABBR1 (Homo sapiens, UniProt Q9UBS5) | radioligand binding |  | 10 µM, added: [3H]CGP-54626 |  | 1% |
| O=C(/C=C\c1ccccc1)O[C@H]1[C@@H]2C=CO[C@@H](O[C@@H]3O[C@H](CO)[C@@H](O)[C@H](O)[C@H]3O)[C@@H]2[C@@]2(CO)O[C@@H]12 | MAOB (Homo sapiens, UniProt P27338) | inhibitor, fluorescence |  | 0.05 mg/mL, added: kynuramine |  | 56.6% |
| CN(CCN1CCC(OC(=O)Nc2ccccc2-c2ccccc2)CC1)C(=O)c1ccc(CN2CCC(C(N)=O)CC2)cc1 | rat NMDA receptor | radioligand binding |  | 1 µM, added: [3H]CGP39653 5.0 nM |  | -3% |
